Assay results from different studies.
Numbered parts are unrelated; each lists some results of a single study.

Sample 1
Target: Histone acetyltransferase KAT6A, both winged helices, GST fusion (KAT6A, Homo sapiens, UniProt Q92794, residues 1-181)
Method: protein binding microarray
Form: double-stranded DNA, one strand shown
Matrix: in vitro
Tested at: not given
Setting: 8-mer, flanks averaged, mean of 2 arrays, mostly near background
Relative to: not given
Direction: higher = stronger binding
Residues (chain): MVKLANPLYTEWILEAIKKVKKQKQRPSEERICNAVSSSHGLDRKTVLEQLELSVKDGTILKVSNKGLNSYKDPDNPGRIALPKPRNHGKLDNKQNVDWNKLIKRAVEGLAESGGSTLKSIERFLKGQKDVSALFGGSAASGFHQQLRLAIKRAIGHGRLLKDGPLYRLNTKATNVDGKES
Oligonucleotide | E-score
TTACATAA | -0.0654
ACTTTCGG | -0.0977
AGTAGCTA | -0.157
AGGGAACC | 0.00281
CGTCAATA | 0.111
GTGAATTA | -0.00752
AATCATCC | -0.0878
ATGATAGG | -0.223
AAGATTAC | -0.101
GTATACAC | 0.109
ACCCGTGG | 0.175
ACCACGAC | -0.129
ATACCAAT | -0.146
AACCCGAC | 0.245
GCGCAATA | 0.235
GGTAACCA | -0.0395
AAATTATA | 0.019

Sample 2
Target: RING finger protein unkempt homolog, zinc fingers 1-6, GST-SBP tag (UNK, Homo sapiens, UniProt Q9C0B0, residues 30-357)
Method: RNA Bind-n-Seq
Form: RNA
Matrix: in vitro
Tested at: not given
Setting: RNA with constant flanks, human and mouse sites, ends assumed
Relative to: input RNA pool
Direction: higher = stronger binding
Construct (chain): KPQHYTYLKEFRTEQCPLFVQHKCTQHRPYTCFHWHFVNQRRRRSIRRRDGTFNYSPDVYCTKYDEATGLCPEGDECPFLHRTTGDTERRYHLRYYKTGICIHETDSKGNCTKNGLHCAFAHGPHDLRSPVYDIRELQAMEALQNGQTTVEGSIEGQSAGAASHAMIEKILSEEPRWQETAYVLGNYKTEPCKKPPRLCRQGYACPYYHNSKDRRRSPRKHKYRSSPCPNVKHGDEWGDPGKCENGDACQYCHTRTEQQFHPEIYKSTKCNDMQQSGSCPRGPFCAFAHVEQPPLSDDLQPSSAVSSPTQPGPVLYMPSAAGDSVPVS
Oligonucleotide | bound/input enrichment [ratio]
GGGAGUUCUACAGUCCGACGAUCACCACUGAGAGCAGUCAAUCCUUUGUUGCAGUACAUCACAGUGAGGAAGGCAGGGAUACCUUAGGAAGCAGUACAAAUCUUCAUAAUCACUCUGAGGGAGAGUAUAUUCCAGGAGCUUGUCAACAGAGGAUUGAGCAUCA | 0.924
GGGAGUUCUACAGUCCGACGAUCGCUGCCUGCACAGAGAAGAAAAUCCCUGUUGUGUUUAGACUACAAGAGGGUUAUGAUCAUAGCUACUACUUCAUUGCAACUUUCAUCGCUGACCACAUCAGACACCAUGCUAAGUACCUGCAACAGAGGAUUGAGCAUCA | 0.227
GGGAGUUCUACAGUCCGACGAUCACAGGUUCUGAGUGGACCCGGACAGUACUCACUCUGAACUCUCGUUCUGAGGUAGAAUCUAUGCCCCCACCGAGGACCAGUGCCUCCUCAGUGAGUUUGCUUUCUGUACUGAGACAGCAGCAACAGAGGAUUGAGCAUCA | 0.135
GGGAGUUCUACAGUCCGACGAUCCCCAACUCCUCUUCAGGACUCACUCCUCUCAGCACCACCGCGCCGAGCAUGUUCUCUGCUGACUUUCUAGACCCACAGGACCUACCGCUGCCAUGGGACUAACGUCACAGAUUUCUUUUCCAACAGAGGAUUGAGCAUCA | 0.282
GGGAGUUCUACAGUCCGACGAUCGUGCUCUUCUAUACCACACGGCCGCGUGACAGCCACCGGGGCAGGCCAGGCCUGGGCAGGGGCUAUGGCUACCGCGUGCACCACGACGUUGUCGCCGGGGACGUCCACUUCGAGCACCCACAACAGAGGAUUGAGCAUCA | 0.5
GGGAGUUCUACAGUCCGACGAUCAUUAACAAAAGCAAACAUAGACAGAACACACUGCCACGCCUAGGAAGAGAAGAUCAUCAAAUGAAUUUUCAUGGUUUUUAAUGUCUGAAUUCACAUCAUACUCGACUUUUUGGUUUUGUUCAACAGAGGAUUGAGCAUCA | 0.414
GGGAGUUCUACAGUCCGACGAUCGCAAAAGUUUAUGUCUCAUUGGAUCAACCUGUGACUGCUUUAAAUCUUUUCAAACAAGGCUUAGAUAAGUUUCCAGGAGAAGUAACCCUGCUCUGUGGAAUUGCAAGAAUCUAUGAGGAACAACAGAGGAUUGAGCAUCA | 0.186
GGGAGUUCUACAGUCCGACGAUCCAGAAAAUCGAUGAGCUCUUCUCUGGGAAGCUGUACCUCAUUGGAAUUGCAGCCAUUGUGGUAGCUGUCAUUAUGAUCUUUGAGAUGAUUCUGAGCAUGGUGCUGUGCUGUGGCAUCCGGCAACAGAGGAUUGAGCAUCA | 0.138
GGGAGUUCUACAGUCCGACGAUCUUCCUGUCGAGAUCCGGUAGCGCAAGAUGCAGAUCUGAGUCAGACAUGGAGAAUGAACGGAAUUCCAAUACCUCCAAGCAGAGAUACUCGGGGAAGGUCCACCUCUGUGUUGCCCGCUAUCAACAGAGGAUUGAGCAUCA | 0.0992
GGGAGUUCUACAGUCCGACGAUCGUGGUACAUAUUUGUCUUUUUCUUUAAAUUGUUACCUUCUGCAGAAAACAGUUUCUACUCAGUUUCAUCUAACAAUCCAGUAUUCCUGAACUUUUUGAAAUUGGUGACAAAUUUUUAUAUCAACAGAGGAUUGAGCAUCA | 0.46
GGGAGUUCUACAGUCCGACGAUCGAAAAUCUUCUUAAUUGGACAAGAGAUAGCCAAAACAAGCUUAUAUUUAUGGAGCGUAUAGAAAAAUAUGCACUUUUCAAAAACCCACAGAAUUAUCUUUUGGGGAAAAAAGAAACAGCUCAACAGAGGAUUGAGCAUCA | 3.77

Sample 3
Target: RNA binding protein fox-1 homolog 2, RRM domain, GST-SBP tag (RBFOX2, Homo sapiens, UniProt O43251-10, residues 100-194)
Method: RNA Bind-n-Seq
Form: RNA
Matrix: in vitro
Tested at: 365 nM
Setting: natural RNA segment, single round, ends assumed
Relative to: no-protein control
Direction: higher = stronger binding
Residues (chain): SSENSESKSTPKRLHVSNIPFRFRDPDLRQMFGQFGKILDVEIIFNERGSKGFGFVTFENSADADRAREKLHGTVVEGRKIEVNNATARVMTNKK
Oligonucleotide | RBNS enrichment (R)
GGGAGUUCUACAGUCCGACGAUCGAAUCUGUCCGUCUGUAAGGCGUAGAAUGAGGGUUGUUAAUCCAUCACAAGCAAAAGGUCAGAACAGUUAAACACUGCCUUUCCUCCUCCUCUUAUUUUAUGAUAAAAGCUGGAAUUCUCGGGUGCCAA | 0.363
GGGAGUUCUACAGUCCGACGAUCGUCCUGGAAAGUUUGGAAAGUUUCUCAAGGCUUUAAAUAAUUCUAAUCAUAGCUACUUCAGUUUUGUGUAUCUGUUCUCUGCAGAUGGUUUGAAACUGUAUAGGAAGAACUGGAAUUCUCGGGUGCCAA | 0.334
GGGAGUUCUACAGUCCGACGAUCAGCCAAUGAUGGAGCCACAUGAAUGGCCCUGGAGCUGUGUGCCUUGUUCCUGUGGCCAGGAGUUUGGUGACUGAAUCAUUUAUGGGCUCCUUUAAUGGGCCCAUAAAAGCUGGAAUUCUCGGGUGCCAA | 0.91
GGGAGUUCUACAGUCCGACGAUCCCCUCCAUGGGGUGAAGCCACACUCAGUGGGUGUGUCACUUCAGGCUCUGUGGGCUGUGCUCAGUCUGUGGCCCAGCACCCCUGCCCUAGAAAGGGGCAACACAGGGUACUGGAAUUCUCGGGUGCCAA | 0.227
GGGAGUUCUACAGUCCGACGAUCCCCACAGGGCCUUAGAGUCAGAGGUAAGGUAGCAACAGAGCUAGAAUGGGGCAAUGCACUCUUACCCUCCUUCUCAACUUUUAUUUAAGCUGUGCUAAAUGUUUUCUUCAUGGAAUUCUCGGGUGCCAA | 1.15
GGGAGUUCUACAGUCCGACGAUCCUUCACCACUGUAGAUCCCAUGCAUGGAUCUAUGUAGUAUGCUCUGACUCUAAUAGGACUGUAUAUACUGUUUUAAGAAUGGGCUGAAAUCAGAAUGCCUGUUUGUGGUUUGGAAUUCUCGGGUGCCAA | 10.1
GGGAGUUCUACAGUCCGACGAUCUUUAAAGAUGCCCUAAGUGUUGAAGAAGAGUUUGCAAAUGCAACAAAAUAUUUAAUUACCGGUUGUUAAAACUGGUUUAGCACAAUUUAUAUUUUCCCUCUCUUGCCUUUUGGAAUUCUCGGGUGCCAA | 1.25
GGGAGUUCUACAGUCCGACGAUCGACUCUUGUGGAGUGACAGUUCCAAGCUGAACCAUAAAUCACUGAUGCACAAAACACUGCUAGAAGGCUCACCUCUCAAAACACGACUCUUUGCAUCACUAUUAAAGAGCUGGAAUUCUCGGGUGCCAA | 0.817
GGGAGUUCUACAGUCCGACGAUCCCUGCCAGGGGUCCUCACCCCUGUCCACCCUGUGCCUGGCUGUCCCUGCACCCAGAUACAGCAACAUGGCCUGUACCCAGCAGAGUGGUGGCACCACCAUGGUUACAGCGUGGAAUUCUCGGGUGCCAA | 0.316
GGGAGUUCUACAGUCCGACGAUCAAUUGUGUUCCCUUGCCCUGAGCAGUCCUUAGACUCAGGGCUUGAAGGUCUGUGGUGUCUCUGUCCGAUGGAGCAGUCUUAAAGCUUUAGUCAGCACAGGCCUAGCAAGGUGGAAUUCUCGGGUGCCAA | 0.252
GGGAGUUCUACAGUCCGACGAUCGUAUAAGGUCCAGGCUGGUCCUUACUCUUCCUGGGACCAAAAGCACCCAGAGGCAUUAACAGGUCCCCAGACUAGGGCCUACACUGAGGGUAGAACCUGGAACCACAGUUUGGAAUUCUCGGGUGCCAA | 0.251
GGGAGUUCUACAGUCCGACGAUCUGAUGUCUAUUCUCCGAGCAUAGCUCUGCCCUGAUUGGCAUUUUAUUCAGAGAGAUGUUUGUCACCUUUCUUUUUGGUAGACCUGUUGGGUUGGUUCCUAUUACAUGAGCUGGAAUUCUCGGGUGCCAA | 0.301

Sample 4
Target: Sal-like protein 4, full length isoform A (SALL4, Homo sapiens, UniProt Q9UJQ4, residues 1-1053)
UniProt Q9UJQ4, sequence (whole entry, looked up): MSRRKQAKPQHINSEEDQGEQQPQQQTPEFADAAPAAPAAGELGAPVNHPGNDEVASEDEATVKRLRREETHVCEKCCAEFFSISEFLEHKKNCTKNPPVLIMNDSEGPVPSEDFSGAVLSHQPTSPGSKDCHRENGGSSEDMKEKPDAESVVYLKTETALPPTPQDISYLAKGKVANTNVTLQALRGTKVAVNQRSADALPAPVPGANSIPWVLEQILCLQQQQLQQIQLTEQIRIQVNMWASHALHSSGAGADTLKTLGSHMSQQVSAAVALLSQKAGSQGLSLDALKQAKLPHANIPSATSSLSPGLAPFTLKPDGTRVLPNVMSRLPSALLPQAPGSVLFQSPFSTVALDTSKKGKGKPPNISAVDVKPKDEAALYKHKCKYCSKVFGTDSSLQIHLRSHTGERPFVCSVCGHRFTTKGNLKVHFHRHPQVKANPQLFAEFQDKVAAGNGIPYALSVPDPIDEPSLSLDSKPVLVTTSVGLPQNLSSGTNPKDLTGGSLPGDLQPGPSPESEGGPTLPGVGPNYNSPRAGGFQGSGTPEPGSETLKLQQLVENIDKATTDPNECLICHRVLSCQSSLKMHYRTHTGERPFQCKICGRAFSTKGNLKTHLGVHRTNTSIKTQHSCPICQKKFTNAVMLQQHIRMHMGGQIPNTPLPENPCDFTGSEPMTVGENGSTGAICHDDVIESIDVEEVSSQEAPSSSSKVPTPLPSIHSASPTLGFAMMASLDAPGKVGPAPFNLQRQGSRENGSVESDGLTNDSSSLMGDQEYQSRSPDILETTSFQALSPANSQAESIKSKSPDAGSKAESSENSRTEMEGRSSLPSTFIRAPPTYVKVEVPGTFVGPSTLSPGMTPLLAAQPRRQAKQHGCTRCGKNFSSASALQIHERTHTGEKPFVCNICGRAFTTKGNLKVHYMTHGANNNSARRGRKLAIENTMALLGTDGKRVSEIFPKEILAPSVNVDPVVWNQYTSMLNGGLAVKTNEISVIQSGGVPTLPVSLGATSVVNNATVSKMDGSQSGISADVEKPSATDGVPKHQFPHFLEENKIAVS
Method: universal PBM
Form: double-stranded DNA, one strand shown
Matrix: in vitro
Tested at: 600 nM
Setting: 8-mer, flanks averaged, mean of replicates
Direction: higher = stronger binding
Oligonucleotide | E-score
CCAAAATC | 0.017
ACTTAGGG | -0.078
ACAAGGCC | -0.214
CCGTTGTA | 0.0866
CTTGAACA | 0.0599
ACTGTCAA | 0.0442
AAAATGTC | 0.283
CCGATCTA | -0.0825
ACCCCCAT | -0.153
ACAAAAGG | -0.117
GGTGAGAA | 0.0344
CAGGCCTA | -0.153
TATTTGGA | 0.207
CATTAATA | 0.394
ATGACGTG | -0.0684
ATTCCGCG | -0.243
ATACCACG | 0.0954
CCTTATCC | -0.195
ACCGAGTC | -0.177
CTGGATGA | -0.142
GAGGACTC | -0.183
CTCACGGA | -0.23
ATATTTCG | 0.425
TGACCAAA | 0.161
ATAGTGGC | -0.0725

Repeated from above (sample 4):
Oligonucleotide | E-score
TATTTGGA | 0.207
CATTAATA | 0.394
ATGACGTG | -0.0684
ATTCCGCG | -0.243
ATACCACG | 0.0954
CCTTATCC | -0.195
ACCGAGTC | -0.177
CTGGATGA | -0.142
GAGGACTC | -0.183
